Assay results of several laboratories.
Parts stem from different laboratories: compare values within a part only.

Set 1
Target: Interferon regulatory factor 3, full length, phosphomimetic (IRF3, Homo sapiens, UniProt Q14653, residues 1-427, S386D/S396D/S398D/S402D/T404D/S405D)
Method: protein-binding microarray
Molecule type: double-stranded DNA, one strand shown
Sample: in vitro
Tested at: 2540 nM top
Setting: 60-bp whole probe
Added: salmon DNA 0.4 mg/ml
Baseline: random background probes
Reading: higher = stronger binding
Constant ends, left off below: GCCTAGCAC … GTCTTGATTCGCTTGACGCTGCTG
Target sequence (chain): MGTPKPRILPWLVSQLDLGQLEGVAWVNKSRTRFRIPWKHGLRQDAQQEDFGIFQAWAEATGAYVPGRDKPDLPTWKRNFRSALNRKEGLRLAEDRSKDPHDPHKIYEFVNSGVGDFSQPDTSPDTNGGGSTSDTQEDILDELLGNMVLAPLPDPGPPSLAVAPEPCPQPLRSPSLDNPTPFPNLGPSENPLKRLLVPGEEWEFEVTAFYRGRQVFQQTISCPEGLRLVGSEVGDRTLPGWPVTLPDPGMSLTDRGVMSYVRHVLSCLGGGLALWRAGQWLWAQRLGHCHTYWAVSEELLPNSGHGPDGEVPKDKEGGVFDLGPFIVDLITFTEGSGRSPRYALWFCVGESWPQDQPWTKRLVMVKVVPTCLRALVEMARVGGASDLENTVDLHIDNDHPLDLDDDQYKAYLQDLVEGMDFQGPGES
Sequence | fitted relative affinity [z-score]
CAAGTTTTTATTTTCTGAATGTGCTAG | 3.11
GACGGTATGGGACTGGGGACGTGCTAG | -0.641
CATTTATTTACTCTCTACATGTGCTAG | 2.74
GACGATATCCGACTGGAGACGTGCTAG | 0.679
GACGATTTCGGGACTGGATACGTGCTA | 1.97
TTGGGTTTCGGTATCGGTTAGTGCTAG | 7.3
GACGGTTTCGGGACTGGGGTCGTGCTA | 4.63
TCAGCTTTCTTTATGCAACTGTGCTAG | 1.27

Set 2
Target: Histone acetyltransferase KAT6A, winged helix 1, GST fusion (KAT6A, Homo sapiens, UniProt Q92794, residues 1-85)
Method: protein binding microarray
Molecule type: double-stranded DNA, one strand shown
Sample: in vitro
Tested at: not given
Setting: 8-mer, flanks averaged, mean of 2 arrays, mostly near background
Baseline: not given
Reading: higher = stronger binding
Residues (chain): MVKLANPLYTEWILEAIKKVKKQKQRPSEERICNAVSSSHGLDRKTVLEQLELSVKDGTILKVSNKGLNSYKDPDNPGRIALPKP
Sequence | E-score
CGACACTA | 0.00215
GTCAGGTA | -0.111
GCGGTTGA | 0.233
CGACTAAG | 0.151
GCGGGCAC | 0.259
CTGAAATA | -0.185
GAAGAGGC | 0.0118
AGCCTGGG | -0.187

Set 3
Target: Replicase polyprotein 1ab, polymerase (rep, Severe acute respiratory syndrome coronavirus 2, UniProt P0DTD1)
Observed: enzyme activity
Action: inhibitor
Tested at: 20 µM
SMILES | inhibition [%]
Cc1nnc(NS(=O)(=O)c2ccc(N)cc2)s1 | 23.8
Oc1cc(O)c2cc(O)c(-c3cc(O)c(O)c(O)c3)[o+]c2c1 | 91.8
CCCCOC(=O)c1ccc(O)cc1 | -0.58
CN1CCN(c2ccc3nc(-c4c(N)c5c(F)cccc5[nH]c4=O)[nH]c3c2)CC1 | -7.04
Cc1cccc(C)c1NC(=O)C1CCCCN1C (centres unmarked) | -1.32
CCCC[C@H](NC(C)=O)C(=O)N[C@H]1CC(=O)NCCCC[C@@H](C(=O)O)NC(=O)[C@H](Cc2c[nH]c3ccccc23)NC(=O)[C@H](CCCNC(=N)N)NC(=O)[C@@H](Cc2ccccc2)NC(=O)[C@H](Cc2c[nH]cn2)NC1=O | 3.06
Cc1c(C)c2c(c(C)c1O)CCC(C)(C)O2 | -18.3
CN(C)CCN1C(=O)c2cccc3cc(NC(N)=O)cc(c23)C1=O | -2.39

Further values, each from its own experiment
Target: Replicase polyprotein 1ab, main protease (rep, Severe acute respiratory syndrome coronavirus 2, UniProt P0DTD1)
Observed: enzyme activity
Action: inhibitor
Tested at: 20 µM
Compound | setting | inhibition [%]
Oc1cc(CNC(=S)/C=C/c2cc(O)c(O)c(Br)c2)cc(O)c1O | hit confirmation | 78.1
S=C(OC1CC2CC1C1CCCC21)[S][K] (centres unmarked) | primary screen | 74.6
